Experimental data pooled from the literature.
Protocols differ between the studies behind these lines. ± marks the error that the study gave.
PDGFRB: Platelet-derived growth factor receptor beta (PDGFRB, Homo sapiens, UniProt P09619)
KCNN4: Intermediate conductance calcium-activated potassium channel protein 4 (KCNN4, Homo sapiens, UniProt O15554)
ALDH1A1: Aldehyde dehydrogenase 1A1 (ALDH1A1, Homo sapiens, UniProt P00352)
KDR: Vascular endothelial growth factor receptor 2 (KDR, Homo sapiens, UniProt P35968)
HDAC5: Histone deacetylase 5 (HDAC5, Homo sapiens, UniProt Q9UQL6)
CTSL: Procathepsin L (CTSL, Homo sapiens, UniProt P07711)
WRN: Bifunctional 3'-5' exonuclease/ATP-dependent helicase WRN (WRN, Homo sapiens, UniProt Q14191)
EGLN1: Egl nine homolog 1 (EGLN1, Homo sapiens, UniProt Q9GZT9)

Structure (SMILES)	target	test	system	conditions	IC50 [nM]
C=CC(=O)Nc1cc(Nc2nccc(-c3cn(C)c4ccccc34)n2)c(OCC(F)(F)F)nc1N(C)CCN(C)C	Cytochrome P450 2B6 (CYP2B6, Homo sapiens, UniProt P20813)	enzyme activity, inhibitor	human, liver microsomes		> 100000
CC(C)C[C@H]1CN[C@H](C(N)=O)CSSC[C@@H](N)C(=O)N[C@@H](CCC(N)=O)C(=O)N[C@@H](Cc2c[nH]c3ccccc23)C(=O)N[C@@H](C)C(=O)N[C@@H](C(C)C)C(=O)N[C@H](C)C(=O)N[C@@H](Cc2c[nH]cn2)C(=O)N1	NMBR (Homo sapiens, UniProt P28336)	inositol phosphate generation, antagonist	Balb 3T3 expressing NMBR	together with: neuromedin B 1 nM	> 10000
CCCc1c(OC)c(=O)c2c(O)c(/C=C/c3ccccc3)c(OC)c3c4c(OC)c(/C=C/c5ccccc5)c(O)c5c(=O)c(OC)c(CCC)c(c1c23)c54	protein kinase C	enzyme activity, inhibitor		whole enzyme	4000
CC(C)C[C@@H](CC(=O)N[C@@H](Cc1ccsc1)C(N)=O)NC(=O)[C@H](CCCNC(=N)N)NC(=O)c1ccc(CC2CCNCC2)cc1	Cyclin-A2, with CDK2 (CCNA2, Homo sapiens, UniProt P20248)	binding to cyclin groove, inhibitor, fluorescence polarization competition			> 30000
C#CCCNC(=O)[C@@H](NC(=O)N[C@H](C(=O)N[C@H]1/C=C/CCNC(=O)/C=C/[C@H](C(C)C)NC1=O)C(C)C)C(C)C	Psmb5 (Mus musculus, UniProt O55234)	chymotrypsin-like activity, inhibitor	mouse constitutive proteasome	together with: Suc-LLVY-AMC	2.1
COc1cc2nccc(Oc3ccc(NC(=S)NC4CCOCC4)c(Cl)c3)c2cc1C(N)=O	PDGFRB				178
NC(c1ccccc1)(c1ccccc1)c1ccccc1Cl	KCNN4	ion current, inhibitor, patch clamp			1000
CC(C)CCCn1c(OC2CCN(C(=O)C3CC3)CC2)nc2c1c(=O)n(C)c(=O)n2C	ALDH1A1				81 ± 11
COC(=O)C1=CNC=C(C(=O)OC)C1c1ccc(F)c(C(F)(F)F)c1	KCNN4	ion current, inside-out patch clamp		140 mM K+, together with: 1 µM free Ca2+	< 20
COc1cc(COc2ccc3c(C)cc(=O)oc3c2)cc(OC)c1OC	Nucleoside transporter 1 (Plasmodium vivax, UniProt A5K8B0)	[3H]adenosine uptake	target-expressing yeast		2.6 ± 0.9
COc1cc2nccc(Oc3ccc(NC(=S)Nc4cccnc4)c(Cl)c3)c2cc1C(N)=O	KDR				108
O=c1c2ccccc2on1-c1ccccc1	HDAC5	enzyme activity, inhibitor			> 10000
NC(=O)c1ccc(C(=O)NOCc2ccc(Sc3cccc(Cl)c3)c(C(F)(F)F)c2)cc1	SIRT6 (Homo sapiens, UniProt Q8N6T7)	enzyme activity, inhibitor, fluorescence			980
O=C(N[C@@H](Cc1coc2ccccc12)B(O)O)[C@@H]1C[C@H]2CC[C@@H]1O2	PSMB6/PSMB7 (Homo sapiens, UniProt P28072+Q99436)	β1 enzyme activity, inhibitor	human constitutive proteasome	2 h preincubation, together with: Ac-nLPnLD-AMC	> 30000
CCNC(=O)N1CCC(Oc2nc3c(c(=O)n(C)c(=O)n3C)n2Cc2cccc(C)c2)CC1	ALDH1A1				441 ± 212
C[C@H]1CCCC[C@@H]1NC(=O)/C(C#N)=C/c1cn(-c2ccccc2)nc1-c1cccs1	PTGS2 (Ovis aries, UniProt P79208)	enzyme activity, inhibitor, absorbance			760
CCC1(CC)C(=O)N(c2cccc(CN3CCN(c4cc(C)nc5ccc(Br)cc45)CC3)c2)C1=O	Dipeptidyl peptidase 8 (Homo sapiens, UniProt Q6V1X1)	cell-free assay, inhibitor			292
CC(C)CCN(Cc1cccc(C(F)(F)F)c1)c1nc(C#N)nc(N2CCOCC2)n1	CTSL	enzyme activity, inhibitor, fluorescence			3
COc1cccc(Cn2c(OC3CCN(C(=O)C4CC4)CC3)nc3c2c(=O)n(C)c(=O)n3C)c1	ALDH1A1				1800
NC1CCC(Nc2nccc(-c3cccnc3Oc3ccc(NS(=O)(=O)Cc4ccccc4Cl)c4ccccc34)n2)CC1 (stereo not drawn)	Serine/threonine-protein kinase/endoribonuclease IRE1, RNase domain (ERN1, Homo sapiens, UniProt O75460)	RNase activity, inhibitor		together with: XBP1 mini-substrate	9.4 ± 1
CCc1ccc(NC(=O)CNS(=O)(=O)c2nc(-c3ccc(OC(F)(F)F)cc3)cc(C(F)(F)F)n2)cc1	WRN	DNA unwinding, inhibitor, TAMRA dequenching			~13

Structure (SMILES)	target	test	system	conditions	IC50 [nM]
CC(C)c1ccc(CN2CCN(CC(=O)c3ccc4[nH]c(=O)[nH]c4c3)CC2)cc1	DNA dC->dU-editing enzyme APOBEC-3A (Homo sapiens, UniProt P31941)	enzyme activity, inhibitor		pH 5.5	3000
COCCNc1nc(-c2nccn2C)nc2sc(-c3cccc(OC)c3Cl)c(-c3ccccc3)c12	Ras-related protein Rab-35 (Homo sapiens, UniProt Q15286)	GTP binding, inhibitor		together with: fluorescent GTP 100 nM	600
C#Cc1cccc(Nc2ncnc3cc(OC)c(OCCCN4CCOCC4)cc23)c1	MET (Homo sapiens, UniProt P08581)	kinase activity, inhibitor		together with: ATP 80.8 µM	> 10000
COc1cc2nccc(Oc3ccc(NC(=S)NC4CC4)c(Cl)c3)c2cc1-c1ncco1	PDGFRB				136
Nc1nc2c(c(=O)[nH]1)[n+](Cc1ccc(F)c(F)c1)cn2[C@@H]1O[C@H](COP(=O)(O)O)[C@@H](O)[C@H]1O	NT5C3B (Homo sapiens, UniProt Q969T7)	enzyme activity, inhibitor, absorbance		pH 7.5	10800
COc1cc2nccc(Oc3ccc(NC(=S)NC(C)(C)C(F)(F)F)c(Cl)c3)c2cc1C(N)=O	PDGFRB				28.1
O=C(NN1CCS(=O)(=O)CC1)c1ccncc1Nc1ccc(I)cc1F	MAP2K2 (Homo sapiens, UniProt P36507)	enzyme activity, inhibitor, radiometric			30
O=C(O)CCCC(=O)NNC(=O)c1cc2c(cn1)[nH]c1ccccc12	EGLN1	inhibitor, AlphaScreen		bimodal curve, rough estimate, together with: 2 µM 2-oxoglutarate	130
CC(C)(C)OC(=O)N1CCC(C(=O)N[C@@H](Cc2ccccc2)C(=O)O)(c2ccccc2)CC1	Gag-Pol polyprotein, integrase (gag-pol, Human immunodeficiency virus 1, UniProt P12497)	integrase catalytic activity, inhibitor, HTRF	HIV-1	together with: LEDGF/p75	387000
COC1CCC(N(C(=O)C2CCC(C)CC2)c2cc(C3=CCCCC3)sc2C(=O)O)CC1 (stereo not drawn)	Probable UDP-N-acetylglucosamine--peptide N-acetylglucosaminyltransferase SPINDLY, 3 TPR truncation (SPY, Arabidopsis thaliana, UniProt Q96301)	self-fucosylation, inhibitor		30 min preincubation, together with: GDP-fucose 50 µM	13300
COc1cc2nccc(Oc3ccc(NC(=S)NCc4ccncc4)c(Cl)c3)c2cc1C(N)=O	PDGFRB				62.8
CC(=O)N[C@@H](Cc1c[nH]c2ccccc12)C(=O)N[C@@H](Cc1c[nH]c2ccccc12)C(=O)N[C@@H](Cc1c[nH]c2ccccc12)C(=O)N[C@@H](Cc1c[nH]c2ccccc12)C(=O)N[C@@H](Cc1c[nH]c2ccccc12)C(=O)N[C@@H](Cc1c[nH]c2ccccc12)C(=O)NCCCC[C@@H]1NC(=O)[C@H](CCCNC(=N)N)NC(=O)[C@H](CCCNC(=N)N)NC(=O)[C@H](CCCNC(=N)N)NC(=O)[C@H](CCCNC(=N)N)NC(=O)[C@H](CCCNC(=N)N)NC(=O)[C@H](CCCNC(=N)N)NC1=O	Cyclin-dependent kinase 2, with cyclin A1 (CDK2, Homo sapiens, UniProt P24941)	enzyme activity, inhibitor			1270
COc1ccc(-c2cc(C(F)(F)F)nc(S(=O)(=O)CCC(=O)Nc3ccc(C)cc3)n2)cc1	WRN	DNA unwinding, inhibitor, TAMRA dequenching		10 nM full-length enzyme, 500 nM trap DNA, together with: 50 nM DNA substrate, 60 µM ATP	534
O=C1CC(c2ccccc2)N1S(=O)(=O)c1cccc(-c2ccccc2)c1 (stereo not drawn)	Rhomboid protease AarA (Providencia stuartii, UniProt P46116)	enzyme activity, inhibitor, fluorescence			< 20000
CC(C)(C)OC(=O)N1CCN(c2ccc3c(O)c(C(=O)NCc4ccc(C#N)nc4)ncc3n2)CC1	EGLN1	enzyme activity, inhibitor, AlphaScreen			2.5
N#Cc1ccc(C2Sc3ccccc3NC3=C2C(=O)c2ccccc23)cc1 (racemic)	Type II NADH dehydrogenase (Plasmodium falciparum, UniProt Q8I302)	enzyme activity, inhibitor, fluorescence NAD+ quantitation	recombinant enzyme		> 20000
COc1cc2nccc(Oc3ccc(NC(=S)Nc4ccccc4F)c(Cl)c3)c2cc1C(N)=O	KDR				139
CC(=O)Nc1ccc(C(=O)Nc2cc(-c3cccs3)ccc2N)cc1	HDAC5	deacetylase activity, inhibitor, recombinant enzyme			> 30000
CCCN(Cc1ccc(F)cc1)c1nc(C#N)nc(N2CCOCC2)n1	CTSL	enzyme activity, inhibitor, fluorescence			67
COc1cc2nccc(Oc3ccc(NC(=S)Nc4ccccc4)c(Cl)c3)c2cc1C(N)=O	KDR				74.1
CC1=CC(=O)CC(C)(C)C1=CCC(C)OC1OC(CO)C(O)C(O)C1O (stereo not drawn)	MAL12 (Saccharomyces cerevisiae S288c, UniProt P53341)	enzyme activity, inhibitor, absorbance			> 100000

Some of these lines once more:
Structure (SMILES)	target	test	system	conditions	IC50 [nM]
COc1cccc(Cn2c(OC3CCN(C(=O)C4CC4)CC3)nc3c2c(=O)n(C)c(=O)n3C)c1	ALDH1A1				1800
NC1CCC(Nc2nccc(-c3cccnc3Oc3ccc(NS(=O)(=O)Cc4ccccc4Cl)c4ccccc34)n2)CC1 (stereo not drawn)	Serine/threonine-protein kinase/endoribonuclease IRE1, RNase domain (ERN1, Homo sapiens, UniProt O75460)	RNase activity, inhibitor		together with: XBP1 mini-substrate	9.4 ± 1
CCc1ccc(NC(=O)CNS(=O)(=O)c2nc(-c3ccc(OC(F)(F)F)cc3)cc(C(F)(F)F)n2)cc1	WRN	DNA unwinding, inhibitor, TAMRA dequenching			~13
CC(C)c1ccc(CN2CCN(CC(=O)c3ccc4[nH]c(=O)[nH]c4c3)CC2)cc1	DNA dC->dU-editing enzyme APOBEC-3A (Homo sapiens, UniProt P31941)	enzyme activity, inhibitor		pH 5.5	3000
COCCNc1nc(-c2nccn2C)nc2sc(-c3cccc(OC)c3Cl)c(-c3ccccc3)c12	Ras-related protein Rab-35 (Homo sapiens, UniProt Q15286)	GTP binding, inhibitor		together with: fluorescent GTP 100 nM	600
